Measured values gathered from unrelated publications.
A part holds a random share of what one study measured.

Set 1
Target: Interferon regulatory factor 3, full length, phosphomimetic (IRF3, Homo sapiens, UniProt Q14653, residues 1-427, S386D/S396D/S398D/S402D/T404D/S405D)
Method: protein-binding microarray
Molecule type: double-stranded DNA, one strand shown
Medium: in vitro
Tested at: 2540 nM top
Notes: 60-bp whole probe
Together with: salmon DNA 0.4 mg/ml
Relative to: random background probes
Direction: higher = stronger binding
Constant ends, left off below: GCCTAGCAC … GTCTTGATTCGCTTGACGCTGCTG
Construct (chain): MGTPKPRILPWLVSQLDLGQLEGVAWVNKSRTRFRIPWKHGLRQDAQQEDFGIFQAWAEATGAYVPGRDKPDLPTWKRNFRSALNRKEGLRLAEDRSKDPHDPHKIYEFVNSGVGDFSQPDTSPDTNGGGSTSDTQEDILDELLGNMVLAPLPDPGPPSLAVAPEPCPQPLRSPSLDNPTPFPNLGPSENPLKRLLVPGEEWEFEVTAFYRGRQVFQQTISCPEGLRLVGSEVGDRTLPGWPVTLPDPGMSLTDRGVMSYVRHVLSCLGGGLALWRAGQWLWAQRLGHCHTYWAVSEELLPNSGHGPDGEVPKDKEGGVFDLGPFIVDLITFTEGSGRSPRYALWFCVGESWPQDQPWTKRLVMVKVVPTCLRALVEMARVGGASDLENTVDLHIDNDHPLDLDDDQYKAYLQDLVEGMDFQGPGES
`TTCATTATTGTTTCCTCTTTGTGCTAG`: “fitted relative affinity” 2.48 z-score.
`TCATGAACCATTTTGGTACTGTGCTAG` — result for “fitted relative affinity”: 1.19 z-score.
Under “fitted relative affinity”, `TTAGATTTCGGGACTGGTTTAGTGCTA` is recorded as 1.3 z-score.
`GACGATCCCAGTCTCGAGACGTGCTAG`: “fitted relative affinity” 0.883 z-score.
For `GACGATATCAGAATGGAGACGTGCTAG`, “fitted relative affinity” read 1 z-score.
For `GAGTTTCCATTTTCTGAATGCGTGCTA`, “fitted relative affinity” read 8.95 z-score.
`TTAGGACTGCGACTGCTTTAGTGCTAG`: “fitted relative affinity” -0.729 z-score.
`GACGATTCCAGTTTCGAAACGTGCTAG`: “fitted relative affinity” 4.58 z-score.
`AAACTAGTGTTTTTCTCCTAGTGCTAG` — result for “fitted relative affinity”: 0.616 z-score.
`TAAGGTATCGGGACTGGGTTAGTGCTA`: “fitted relative affinity” 0.905 z-score.
Under “fitted relative affinity”, `TTAGATCTCAGTATTGATTAGTGCTAG` is recorded as 0.298 z-score.
`GACGGTAACCTTTTCCTGACGTGCTAG` — result for “fitted relative affinity”: 2.48 z-score.
`TTTGATTTCGGGTTTCGATTAGTGCTA` — result for “fitted relative affinity”: 3.7 z-score.
Under “fitted relative affinity”, `TCATATACACACTATAGTACTGTGCTA` is recorded as 0.691 z-score.
Under “fitted relative affinity”, `GACCGTTTCCTTTCCCTGACGTGCTAG` is recorded as 8 z-score.
For `TTAGATTTCAATTCCGATTAGTGCTAG`, “fitted relative affinity” read 2.27 z-score.
`GACGAAATCGGGACTGGAGACGTGCTA` — result for “fitted relative affinity”: -0.0687 z-score.

Set 2
Target: RNA binding protein fox-1 homolog 2, RRM domain, GST-SBP tag (RBFOX2, Homo sapiens, UniProt O43251-10, residues 100-194)
Method: RNA Bind-n-Seq
Molecule type: RNA
Medium: in vitro
Tested at: 365 nM
Notes: natural RNA segment, single round, ends assumed
Relative to: no-protein control
Direction: higher = stronger binding
Construct (chain): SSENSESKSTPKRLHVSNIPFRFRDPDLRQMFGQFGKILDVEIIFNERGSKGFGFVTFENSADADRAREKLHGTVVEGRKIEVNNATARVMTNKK
Under “RBNS enrichment (R)”, `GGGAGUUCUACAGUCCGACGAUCAGGGCGCCAACUUCAGGAGUCCGCUUUCCCACCAGGCUUCAUUCACCCAGUGGACCUGAACUGUUUGGUAGAGCCACCCGGCCCUUCCUUCCUCAUUGUUGUUUGGUAUGUGGAAUUCUCGGGUGCCAA` is recorded as 0.329.
`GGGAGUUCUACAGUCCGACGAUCCAGUGCAAGCUACGGACCACAGUUAGGCUGCCUCACCUCUCAGGCGGCCAGCAGCAGCUCUGCUCAGUCUUUAUUCCCACACCAAAGGGCGAGCAGGUGUGACAUUGGCUUGGAAUUCUCGGGUGCCAA` — result for “RBNS enrichment (R)”: 0.438.
`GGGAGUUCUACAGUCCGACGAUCUGCUGCUUCGAGGCCCUGAAGCUGGGGCUGUGAGACCCUUCCCUACAGUGUCCUCUUCCUCUGCUGGCUGGGAGCAGCGGGAGGCAGGGCAGAAACGUUGGGCUCCAUUCUGGAAUUCUCGGGUGCCAA` — result for “RBNS enrichment (R)”: 0.718.
`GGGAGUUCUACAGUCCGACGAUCGUAAAACUUACUAAAAGAAAAGAGGUUUGUGUUCACAUUAAAUGGUUUUGGUUUGGCUUCUUUUAGUCAGGCUUUCUGAACAUUGAGAUAUCCUGAACUUAGAGCUCUUCUGGAAUUCUCGGGUGCCAA`: “RBNS enrichment (R)” 0.423.
Under “RBNS enrichment (R)”, `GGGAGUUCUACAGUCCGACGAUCUUCAGUAGCUUUAAAUUCUCAGGUCAGAACAUAACAUUUCUCAUUUGUUAAAAGCAGCAAGAAGCCUGGUAAAACUGUGACUUUUCCCCAAAUGUCAAUCUUUAUUAGAAUGGAAUUCUCGGGUGCCAA` is recorded as 0.446.
`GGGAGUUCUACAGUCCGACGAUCGAAGCCCAGCUACCUGCCUUCACUGAAAUAUACCUCAGGCUGAGACGGGCGGGACAGCAGGUCAGUGGAUCUUCACCGGAAGGUGCAGCUUCUCGGCAUCAGCGCAGCUGUGGAAUUCUCGGGUGCCAA`: “RBNS enrichment (R)” 0.297.
`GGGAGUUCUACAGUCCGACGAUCGUAGAGAAAGCUAUUUUAUUCUGUAUUUUUAAAACUGUUCCGUACAAAUAAAAGCUCUCCUGGAUGUGUUCUGUUGUCAUUUGCCUCUUUCUUGGGCUGGAAUUCAAUUAUGGAAUUCUCGGGUGCCAA` — result for “RBNS enrichment (R)”: 1.45.
`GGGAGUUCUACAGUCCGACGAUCCACAGGGCUUUCUUCACUCUUGGUCUUCGUUUCUGAUCAAGUAAACACCAGCAGUUGUCAUUCAGUGCAGGUUUUUGUACUUCUAUAUGGUGAUUUUUUUACUUAAAAGCUGGAAUUCUCGGGUGCCAA` — result for “RBNS enrichment (R)”: 0.413.
For `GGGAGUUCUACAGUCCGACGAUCCCUUACCCCUUAGCCUCCCUGAAAAUGUUUUUCUGCCAGGGAGCUUGAAAGUUUUCAGAACCUCUUCCCCAGAAAGGAGACUAGAUUGCCUUUGUUUUGAUGUUUGUGGCUGGAAUUCUCGGGUGCCAA`, “RBNS enrichment (R)” read 0.684.
Under “RBNS enrichment (R)”, `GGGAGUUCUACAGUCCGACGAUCGGUUUCCUUCCGUUAGCUUUUGGGUUUCCUCGGUGGCUCUGGCAAGGCUGCUGCUGUGUCAUUCGGUGCCUUUGUGAGUUUCCUUGCUGUAGGUGAUUCUUGACUGUGGGUGGAAUUCUCGGGUGCCAA` is recorded as 0.33.
`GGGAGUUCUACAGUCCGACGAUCGGCGUCCCCGUCUCCGUUGGGGCCAUUAGAAUGAGGCAGACACCAGGCCACUCUAGAAGCCGAGCCGUCACACCUCAGGCGUGUGCGGGGCGGGGACGGGGGGUCUCCUGUGGAAUUCUCGGGUGCCAA` — result for “RBNS enrichment (R)”: 0.348.
`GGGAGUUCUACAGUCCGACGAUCGCUCACUUUCACUGAGGAUGCUGUCCUCUGAUUUAGCUGCUGCCUCCAGCCUCUGGCUUGAGAACUUACUAAAGGCACUUCCUUCCUGUUAAACCCCUGUUAACUCUCCAUGGAAUUCUCGGGUGCCAA`: “RBNS enrichment (R)” 0.314.

Set 3
Target: Ras GTPase-activating protein-binding protein 1, full length (G3BP1, Homo sapiens, UniProt Q13283)
Sequence of UniProt Q13283 (whole entry, looked up): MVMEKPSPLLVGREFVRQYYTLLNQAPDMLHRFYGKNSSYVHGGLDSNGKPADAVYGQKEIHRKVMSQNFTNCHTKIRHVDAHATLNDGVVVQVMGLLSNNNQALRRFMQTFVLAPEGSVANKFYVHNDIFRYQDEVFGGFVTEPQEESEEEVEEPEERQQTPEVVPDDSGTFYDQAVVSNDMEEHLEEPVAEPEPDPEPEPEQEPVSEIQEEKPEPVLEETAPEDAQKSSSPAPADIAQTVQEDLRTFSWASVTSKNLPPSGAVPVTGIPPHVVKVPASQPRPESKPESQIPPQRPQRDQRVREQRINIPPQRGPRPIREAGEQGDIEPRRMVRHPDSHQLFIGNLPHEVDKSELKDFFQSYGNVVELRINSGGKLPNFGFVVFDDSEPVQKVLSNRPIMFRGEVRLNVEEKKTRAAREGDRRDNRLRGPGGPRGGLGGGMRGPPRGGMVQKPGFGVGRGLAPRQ
Method: RNA Bind-n-Seq
Molecule type: RNA
Medium: in vitro
Tested at: 200 nM
Notes: whole 134-nt RNA, ends assumed
Together with: 150 mM KCl
Relative to: input library
Direction: higher = stronger binding
The log2 enrichment of `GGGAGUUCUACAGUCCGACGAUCACCAUGCAGGUGGGCAUCUUUGGGAAGUGGGGCAAGGGGGGGAUAGGGAGGGGGGUAACACUUUGGGAACACGUGGUCCCAGGUCGUUUCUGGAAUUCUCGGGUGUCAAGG` is reported as 0.739.
The log2 enrichment of `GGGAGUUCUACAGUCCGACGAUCCCUGUGCUACACAUCGUAUGUACCGAAUCGGGCCCCCCGGGGCCCCCCGGGGCCCCCCGGAAAGUAUUAUGUUACGCCGUUCGGAUCUGCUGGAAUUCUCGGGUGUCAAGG` is reported as -0.497.
`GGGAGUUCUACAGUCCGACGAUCUGAAUGCUGAGAAUGUUGCUGGUCACCAGAUUGCCUCUGAAACACAGAUCCUUGAGGGCUCUUUGGGAAUAUCUGUAAAGUCACACUGCAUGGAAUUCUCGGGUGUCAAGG` gave a log2 enrichment of 0.13.
`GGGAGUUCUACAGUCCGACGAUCUGCUGCUUUCUGCCUUGGUGGCAGGCAGAGAACUGUCUCGUACUAGAAUUCAAGGAGGAAAGAAGAAGAAAUAAAAGAAGCUGCUCCAUUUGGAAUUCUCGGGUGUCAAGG` gave a log2 enrichment of -1.31.
With `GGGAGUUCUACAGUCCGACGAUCCUCAAGUCCUGUGCUACACAUCGUAUGUACCGAAUCGGAAGGGGAAGGGGAAGGAAAGUAUUAUGUUACGCCGUUCGGAUCUGCACUUCCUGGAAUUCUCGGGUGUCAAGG` the log2 enrichment was -0.138.
With `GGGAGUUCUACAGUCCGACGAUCCCUGUGCUACACAUCGUAUGUACCGAAUCGGGGUUUUUUUGGGGUGGGGUUUUUUUGGGGAAAGUAUUAUGUUACGCCGUUCGGAUCUGCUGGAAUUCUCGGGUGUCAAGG` the log2 enrichment was 0.173.
The log2 enrichment of `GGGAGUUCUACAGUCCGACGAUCCAAGUCCUGUGCUACACAUCGUAUGUACCGAAUCGGUUUUGGUUUUGGGUUUUGGGAAAGUAUUAUGUUACGCCGUUCGGAUCUGCACUUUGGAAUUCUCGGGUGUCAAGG` is reported as -1.27.
With `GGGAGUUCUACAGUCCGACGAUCGCAGGAAGUAAAAACAAAUGGAAAUGCUUCGGAUAGUGGAAGGGGUGGGGGUUGCUAAGGAAAGGGUGGGAUGGGAGUGGGUAAAGAGUUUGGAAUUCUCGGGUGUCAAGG` the log2 enrichment was 0.811.
With `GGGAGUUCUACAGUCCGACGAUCUGGGAGGUGGAUUUUGUUUAUUUUUUUAGCUCAUUUCCAGGGGUGGGAAUUUUUUUUUAAUAUGUGUCAUGAAUAAAGUUGUUGUUGAAAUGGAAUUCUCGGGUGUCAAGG` the log2 enrichment was 0.551.
With `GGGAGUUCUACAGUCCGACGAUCCACAGACAACACGCACCCGCACAGACACAGAGGGAAGGGGUUGGGAUGGGGACAGGGUGCACAGCAGGGCGGGGUAGGACCCCAGCCCCUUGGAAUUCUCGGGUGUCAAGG` the log2 enrichment was 1.92.
With `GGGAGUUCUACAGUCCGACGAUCAAGUCCUGUGCUACACAUCGUAUGUACCGAAUCGGGUUUGGGUUUUUGGGAAAGGGAAAGUAUUAUGUUACGCCGUUCGGAUCUGCACUUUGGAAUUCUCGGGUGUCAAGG` the log2 enrichment was 0.0872.
For `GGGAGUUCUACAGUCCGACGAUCCUCAAGUCCUGUGCUACACAUCGUAUGUACCGAAUCGGGAAGGGGAAGGAAGGAAAGUAUUAUGUUACGCCGUUCGGAUCUGCACUUCCAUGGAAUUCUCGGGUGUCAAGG`, the log2 enrichment was -0.281.
For `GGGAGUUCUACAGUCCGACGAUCCAAGUCCUGUGCUACACAUCGUAUGUACCGAAUCGGAAAAAAAGGAAAAAGGUGGAAAGUAUUAUGUUACGCCGUUCGGAUCUGCACUUCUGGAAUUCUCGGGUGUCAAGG`, the log2 enrichment was -1.09.
The log2 enrichment of `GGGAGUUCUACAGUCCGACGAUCUGGCCCUGGUGGCAUGCGGGGAGGAAGAGGUGGCCUCAUGGAUCGUGGUGGUCCCGGUGGAAUGUUCAGAGGUGGCCGUGGAGGAGACAGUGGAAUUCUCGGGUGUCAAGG` is reported as 0.24.

Set 4
Target: PABPC1L2, full length, GST fusion (mouse, UniProt A0ABA7IW68)
Method: RNAcompete
Molecule type: RNA
Medium: in vitro
Tested at: 20 nM
Notes: 7-mer, probes averaged, single round
Relative to: mean of 7-mers
Direction: higher = stronger binding
Target sequence (chain): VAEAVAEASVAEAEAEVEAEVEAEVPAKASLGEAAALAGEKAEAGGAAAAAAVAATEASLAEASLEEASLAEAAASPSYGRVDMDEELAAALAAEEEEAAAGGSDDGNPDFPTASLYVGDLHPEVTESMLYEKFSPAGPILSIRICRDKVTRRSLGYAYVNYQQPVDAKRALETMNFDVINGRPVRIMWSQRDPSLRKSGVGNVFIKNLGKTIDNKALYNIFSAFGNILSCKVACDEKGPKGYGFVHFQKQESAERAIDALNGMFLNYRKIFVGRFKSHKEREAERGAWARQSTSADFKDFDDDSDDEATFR
For `CCCAUCU`, the 7-mer Z-score was -0.465.
With `AGGGACA` the 7-mer Z-score was 0.428.
`CCUACUU` has a 7-mer Z-score of -0.331.
For `AGUACUA`, the 7-mer Z-score was -0.141.
With `AAAAGCG` the 7-mer Z-score was 4.46.
For `CAGUCAA`, the 7-mer Z-score was -0.202.
With `ACUAGCC` the 7-mer Z-score was -0.228.
With `CGCUUUA` the 7-mer Z-score was -0.287.
`GUCAACU` has a 7-mer Z-score of -0.293.
For `CCGAGAA`, the 7-mer Z-score was 0.207.
`CGGAGAA` has a 7-mer Z-score of 0.363.
`GAAAUUA` has a 7-mer Z-score of 0.749.
The 7-mer Z-score of `UAGAGUC` is reported as -0.233.
`UCUGAUC` gave a 7-mer Z-score of -0.298.
`CGGGAGA` gave a 7-mer Z-score of -0.0826.
With `CACCGCU` the 7-mer Z-score was -0.142.
